# Assay results from different studies.
# Numbered parts are unrelated; each lists some results of a single study.

# Study 1 — method: RNA Bind-n-Seq; form: RNA; matrix: in vitro; concentration: 200 nM; notes: whole 134-nt RNA, ends assumed; together with: 150 mM LiCl; reference: input library; reading: higher = stronger binding; library: 7-deaza-guanosine replaces G
# Target: Fragile X messenger ribonucleoprotein 1, C-terminal low-complexity region (Fmr1, Mus musculus, UniProt P35922)
# All sequences stand within: GGGAGUUCUACAGUCCGACGAUC … UGGAAUUCUCGGGUGUCAAGG
Sequence,log2 enrichment
GCAGGAAGUAAAAACAAAUGGAAAUGCUUCGGAUCGUGGCAGGGGUGGGGGUUGCUAAGGAAAGGGUGGGAUGGGAGUGGGUAAAGAGUU,1.38
GCAGGAAGUACAAACAAAUGGAAAUGCUUCGGAUAGUGGCAGGGGUGGGGGUUGCUAAGGAAAGGGUGGGAUGGGAGUGGGUAAAGAGUU,1.86
UGCUGGUGAGCUGCUGCCUGGCAGGCCACGUCUGCGUGUGGGACGCGCAGACCGGGGAUUGCCUAACGCGCAUUCCGCGCCCAGGGUAGG,-2.12
GUCCUGUGCUACACAUCGUAUGUACCGAAUCGGGGAAAAAGGGGAGGGGAAAAAGGGGAAAGUAUUAUGUUACGCCGUUCGGAUCUGCAC,0.883
ACCAUGCAGGUGGGCAUCUUUGGGAAGUGGGGGAAGGGGGGGAUAGGGAGGGGGGUAACACUUUGGGAACAGGUGGUCCCAGGUCGUUUC,1.74
UGGGAGGUGGAUUUUGUUUACUUUUUUAGCUCAUUUCCAGGGGUGGGAAUUUUUUUUUAAUAUGUGUCAUGAAUAAAGUUGUUUUUGAAA,0.138
GUCCUGUGCUACACAUCGUAUGUACCGAAUCAAAUUUUUUUAAAUUUUUAAACCCAAAAAAGUAUUAUGUUACGCCGUUCGGAUCUGCAC,-0.674
CUGUGCUACACAUCGUAUGUACCGAAUCGGGGUUUUUUUGGGUUUUUUUGGGUUUUUUUGGGAAAGUAUUAUGUUACGCCGUUCGGAUCU,0.759
CAAGUCCUGUGCUACACAUCGUAUGUACCGAAUCGGUUUUUUUGGUUUUUGGAGGAAAGUAUUAUGUUACGCCGUUCGGAUCUGCACUUC,-1.07

# Study 2 — method: RNAcompete; form: RNA; matrix: in vitro; concentration: 20 nM; notes: 7-mer, probes averaged, single round; reference: mean of 7-mers; reading: higher = stronger binding
# Target: PABPC1L2, full length, GST fusion (mouse, UniProt A0ABA7IW68)
# Target sequence (chain): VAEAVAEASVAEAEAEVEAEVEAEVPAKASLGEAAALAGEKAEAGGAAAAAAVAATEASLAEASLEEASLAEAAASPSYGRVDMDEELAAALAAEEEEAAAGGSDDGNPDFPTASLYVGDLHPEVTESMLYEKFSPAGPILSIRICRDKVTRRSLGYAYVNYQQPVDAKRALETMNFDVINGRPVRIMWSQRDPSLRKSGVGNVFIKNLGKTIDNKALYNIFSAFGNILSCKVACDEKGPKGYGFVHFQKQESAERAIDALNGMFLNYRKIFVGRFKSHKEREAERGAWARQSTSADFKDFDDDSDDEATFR
Sequence,7-mer Z-score
UAUUGUU,-0.327
UUAGAAA,1.52
CGUACCU,-0.295
CGCGCCC,-0.385
UGAAAGA,0.437
AGCUUAG,-0.128
GGCAACA,0.309
GACCUGU,-0.387

# Study 3 — method: protein-binding microarray; form: double-stranded DNA, one strand shown; matrix: in vitro; concentration: 940 nM top; notes: 60-bp whole probe; together with: salmon DNA 0.4 mg/ml; reference: random background probes; reading: higher = stronger binding; all sequences stand within: GCCTAGCAC … GTCTTGATTCGCTTGACGCTGCTG
# Target: Interferon regulatory factor 5, full length, phosphomimetic (IRF5, Homo sapiens, UniProt Q13568-2, residues 1-514, S451D/S453D/S456D/S462D)
Sequence,fitted relative affinity [z-score]
TCAGGTCTCGGTCTCGGTTAGTGCTAG,5.13
TAAGGTATCGACACTGGGTTAGTGCTA,2.8
GACGGAATGGGTTTCGGGACGTGCTAG,3.34
TCATTTCTGAATGTCTTACTGTGCTAG,0.548
GACGGTATCGACTTGCGGGACGTGCTA,4.46
TTTTTTTTTTTTTTTTTGGAGTGCTAG,1.88
TTAGGACTGCTTTTCCCTTAGTGCTAG,-0.105
GTCGGTTTCGGTTCCGGGACGTGCTAG,16.5
CTGGAGAGACGGAGTCTCCAGTGCTAG,-0.651

# Mixed results
Molecule,target,test,system,conditions,scale,quantity,value
"PhoQ, residues 284 288 289 292 302 303 SQSLSM","PhoP, residues 12 14 15 18 19 SMASL (Escherichia coli, UniProt P23836)","Sort-seq, measured: YFP reporter",E. coli,"PhoQ-PhoP variant library, together with: 10 µM Mg2+","reference: high Mg2+ state, higher = stronger signaling",fold induction,12.1

# A few entries again (study 2):
Sequence,7-mer Z-score
CGUACCU,-0.295
CGCGCCC,-0.385
